Results gathered from unrelated publications.
Lines come from different studies, so protocols differ. Several values in a cell are separate wells, animals, samples, runs or records. ± marks the error that the study gave.

Compound = CC[C@H](C)[C@H](NC(=O)[C@H](CCCCN)NC(=O)CNC(=O)[C@H](CC(C)C)NC(=O)[C@H](Cc1ccccc1)NC(=O)[C@H](CCCCN)NC(=O)[C@H](CO)NC(=O)[C@H](Cc1ccccc1)NC(=O)[C@H](Cc1c[nH]c2ccccc12)NC(=O)[C@H](CCC(N)=O)NC(=O)[C@@H](NC(=O)[C@H](Cc1ccccc1)NC(=O)CCCCCNC(=O)CN1CCN(CC(=O)O)CCN(CC(=O)O)CCN(CC(=O)O)CC1)C(C)C)C(=O)N[C@@H](CCC(=O)O)C(=O)N1CCC[C@H]1C(=O)N[C@@H](CC(=O)O)C(=O)N[C@H](C(=O)N[C@@H](CO)C(=O)N[C@@H](CCC(N)=O)C(=O)N[C@H](C(=O)N[C@@H](CCC(N)=O)C(=O)N[C@@H](CC(=O)O)C(=O)N1CCC[C@H]1C(=O)N[C@@H](CC(N)=O)C(=O)N[C@@H](CC(=O)O)C(=O)N[C@@H](CCC(N)=O)C(=O)N[C@@H](Cc1ccc(O)cc1)C(=O)N[C@@H](CCC(=O)O)C(=O)N1CCC[C@H]1C(=O)N[C@@H](Cc1ccccc1)C(=O)O)C(C)C)C(C)C [copper-64 labelled]; assay = dynamic PET; system = mouse both sexes, CT26 tumour, untreated, tumour; conditions = intravenous, 100 µCi/mouse, 810 s; measurement = SUVmean; value = 0.72 SUV
Compound = CSCC[C@H](N)C(=O)N[C@@H](C)C(=O)N[C@@H](Cc1c[nH]c2ccccc12)C(=O)N[C@@H](Cc1c[nH]cn1)C(=O)N[C@@H](CC(=O)O)C(=O)N[C@@H](CC(=O)O)C(=O)N[C@@H](CCC(=O)O)C(=O)N[C@@H](CCC(=O)O)C(=O)N[C@@H](Cc1ccccc1)C(=O)N[C@@H](C)C(=O)N[C@@H](CCCNC(=N)N)C(=O)N[C@@H](CCCNC(=N)N)C(=O)N[C@@H](CCCNC(=N)N)C(=O)N[C@@H](CCCNC(=N)N)C(=O)NCCCCCC(=O)NCCCCC(NC(=O)CCCCCNC(=O)[C@H](CCCNC(=N)N)NC(=O)[C@H](CCCNC(=N)N)NC(=O)[C@H](CCCNC(=N)N)NC(=O)[C@H](CCCNC(=N)N)NC(=O)[C@H](C)NC(=O)[C@H](Cc1ccccc1)NC(=O)[C@H](CCC(=O)O)NC(=O)[C@H](CCC(=O)O)NC(=O)[C@H](CC(=O)O)NC(=O)[C@H](CC(=O)O)NC(=O)[C@H](Cc1c[nH]cn1)NC(=O)[C@H](Cc1c[nH]c2ccccc12)NC(=O)[C@H](C)NC(=O)[C@@H](N)CCSC)C(=O)NCCCCC(NC(=O)C(CCCCNC(=O)CCCCCNC(=O)[C@H](CCCNC(=N)N)NC(=O)[C@H](CCCNC(=N)N)NC(=O)[C@H](CCCNC(=N)N)NC(=O)[C@H](CCCNC(=N)N)NC(=O)[C@H](C)NC(=O)[C@H](Cc1ccccc1)NC(=O)[C@H](CCC(=O)O)NC(=O)[C@H](CCC(=O)O)NC(=O)[C@H](CC(=O)O)NC(=O)[C@H](CC(=O)O)NC(=O)[C@H](Cc1c[nH]cn1)NC(=O)[C@H](Cc1c[nH]c2ccccc12)NC(=O)[C@H](C)NC(=O)[C@@H](N)CCSC)NC(=O)CCCCCNC(=O)[C@H](CCCNC(=N)N)NC(=O)[C@H](CCCNC(=N)N)NC(=O)[C@H](CCCNC(=N)N)NC(=O)[C@H](CCCNC(=N)N)NC(=O)[C@H](C)NC(=O)[C@H](Cc1ccccc1)NC(=O)[C@H](CCC(=O)O)NC(=O)[C@H](CCC(=O)O)NC(=O)[C@H](CC(=O)O)NC(=O)[C@H](CC(=O)O)NC(=O)[C@H](Cc1c[nH]cn1)NC(=O)[C@H](Cc1c[nH]c2ccccc12)NC(=O)[C@H](C)NC(=O)[C@@H](N)CCSC)C(N)=O (stereo partly drawn); system = C57BL/6 mouse female, spleen; conditions = dose not given, 3 h; how to read = relative to: total; measurement = tissue distribution; value = 0.7% and 0.79% and 0.78%
Compound = CSCC[C@H](NC(=O)CNC(=O)[C@H](CCCCN)NC(=O)[C@H](CC(C)C)NC(=O)[C@@H]1CCCN1C(=O)[C@H](CO)NC(=O)[C@H](Cc1c[nH]cn1)NC(=O)[C@H](Cc1c[nH]c2ccccc12)NC(=O)[C@H](CCCNC(=N)N)NC(=O)[C@H](CC(C)C)NC(=O)[C@H](CCCNC(=N)N)NC(=O)[C@H](Cc1c[nH]c2ccccc12)NC(=O)[C@H](CS)NC(=O)CCCCCNC(=O)CN1CCN(CC(=O)O)CCN(CC(=O)O)CCN(CC(=O)O)CC1)C(=O)O [copper-64 labelled]; assay = PET imaging; system = BALB/c nude mice, kidney; conditions = intravenous, dose not given, 18 h, Huh-7 tumour-bearing; measurement = tissue uptake; value = 5.34 ± 0.4 %ID/g
Compound = C[C@H](O)[C@@H](NC(=O)[C@H]1CCCN1C(=O)[C@@H](CCCCN)NC(=O)[C@@H](CO)NC(=O)[C@@H](Cc1ccc(O)cc1)NC(=O)[C@@H](CC(N)=O)NC(=O)CCOCCOCCOCCNC(=O)CN1CCN(CC(=O)O)CCN(CC(=O)O)CCN(CC(=O)O)CC1)C(=O)N[C@H](CC(=O)O)C(=O)N[C@H](CCCNC(=N)N)C(=O)N[C@H](CCC(N)=O)C(=O)N[C@H](Cc1ccc(O)cc1)C(=O)N[C@H](Cc1c[nH]cn1)C(=O)N[C@H](Cc1ccccc1)C(N)=O [gallium-68 labelled]; system = BALB/c nude mice U-87 MG tumour, lung; conditions = intravenous, 1.85 MBq, 0.5 h, radiolabelled; measurement = tissue uptake; value = 1.03 ± 0.9 %ID/g
Compound = CC(CCC(=O)NCC(=O)O)C1CCC2C3CCC4CC(OC5OC(C(=O)O)C(O)C(O)C5O)CCC4(C)C3CC(O)C12C (stereo not drawn); system = women, C/C genotype, plasma; conditions = dose not given, geometric mean; measurement = plasma concentration; value = 286 ng/mL
Compound = CC(C)[C@@H]1NC(=O)CNC(=O)[C@H](CC(N)=O)NC(=O)[C@H](CCCNC(=N)N)NC(=O)[C@H](Cc2ccc(O)cc2)NC(=O)[C@H](C(C)C)NC(=O)[C@@H](NC(=O)[C@@H](NC(=O)[C@H](CC(N)=O)NC(=O)[C@H](Cc2c[nH]c3ccccc23)NC(=O)[C@H](C)NC(=O)[C@H](Cc2ccccc2)NC(=O)CNC(=O)[C@H](CCCCN)NC(=O)[C@H](Cc2ccccc2)NC(=O)[C@H](Cc2ccccc2)NC(=O)[C@H](CCCCN)NC(=O)OCC2c3ccccc3-c3ccccc32)C(C)C)CSSC[C@@H](C(=O)N[C@@H](Cc2c[nH]cn2)C(=O)N[C@@H](CCCNC(=N)N)C(=O)N[C@@H](CCCNC(=N)N)C(=O)N[C@@H](C)C(=O)N[C@@H](CC(N)=O)C(N)=O)NC(=O)[C@H](C(C)C)NC(=O)[C@H](CCCNC(=N)N)NC1=O; system = ICR mouse, blood; conditions = intramammary, 5 mg/kg, day 5, 3 d dosing; measurement = MCV; value = 41.1 ± 1.25 fL
Compound = CCCCC[C@@H]1NC(=O)[C@@H](C)N(C)C(=O)[C@H](CCCCC)N(C)C(=O)[C@@H](C)N(C)C(=O)[C@H](CCCCC)N(C)C(=O)[C@@H](C)N(C)C(=O)[C@H](CCCCC)N(C)C(=O)[C@@H](C)N(C)C1=O; assay = PAMPA, HPLC-UV; conditions = 500 µM, pH 7.4; measurement = log Papp; value = -5.24 ± 0.03
Compound = CC[C@H](C)[C@H](NC(C)=O)C(=O)N[C@@H](Cc1ccc(O)cc1)C(=O)N[C@@H](CC(C)C)C(=O)N[C@@H](CS)C(=O)NCC(=O)N[C@@H](C)C(=O)N[C@H](C(=O)N[C@@H](CO)C(=O)N[C@@H](CC(C)C)C(=O)N[C@@H](Cc1c[nH]cn1)C(=O)N1CCC[C@H]1C(=O)N[C@@H](CCCCN)C(=O)N[C@@H](C)C(=O)N[C@@H](CCCCN)C(=O)N[C@H](C(=O)N[C@@H](CCC(=O)O)C(=O)N[C@@H](CCC(=O)O)C(=O)N[C@@H](CO)C(=O)N1CCC[C@H]1C(=O)NCC(=O)N[C@@H](C)C(N)=O)[C@@H](C)CC)[C@@H](C)CC; assay = Cy5.5 fluorescence; system = mouse (C57BL/6), serum; conditions = intravenous, 10 mg/kg; measurement = elimination half-life; value = 48 min
Compound = C=Cc1c(C)c2cc3nc(c(CC(=O)[O-])c4[n-]c(cc5nc(cc1[n-]2)C(C)=C5CC)c(C)c4C(=O)[O-])C(CCC(=O)[O-])C3C.[Cu+2].[Na+].[Na+].[Na+] (stereo not drawn); system = Wistar rat; conditions = oral, 5000 mg/kg, acute toxicity; how to read = relative to: untreated; measurement = body weight; value = no effect
Compound = CCN(Cc1ccccc1)C(=O)CCc1nc(CN2CCN(C(=O)Cc3ccc(OC)c(OC)c3)CC2)no1; system = mouse; conditions = intraperitoneal, up to 150 mg/kg; measurement = vital signs; value = no effect
Compound = c1cc([C@H]2CCC[C@@]3(C2)OOC2(O3)C3CC4CC(C3)CC2C4)ccc1OCCN1CCOCC1 (mixture of isomers); assay = metabolic stability; system = human, liver microsomes; measurement = microsomal CLint; value = 21.6 µL/min/mg
Compound = Cc1cc(-c2ccc3ccccc3c2)nnc1NCCN1CCN(C)CC1; assay = metabolic stability; system = human, liver microsomes; conditions = 10 min; measurement = compound remaining; value = 97.8%
Compound = CN1Cc2cc(Cl)ccc2-n2c(nnc2C2CCN(c3cccc([18F])n3)CC2)C1; system = C57BL/6 mouse male, brain; conditions = intravenous, 3.7 MBq, 30 min; measurement = tissue uptake; value = 0.4 ± 0.01 %ID/g
Compound = N#[11C]c1ccc(-c2csc(NN=C3CCCC3)n2)cc1; system = C57BL/6 mouse, male; conditions = intravenous, 3 MBq, 1 min; measurement = uptake in testis; value = 1 ± 0.06 %ID/g
Compound = C=CC(=O)Nc1cccc(Cn2ncc3cnc(Nc4cnn(CCOC)c4)nc32)c1; system = Sprague-Dawley rat female, serum; conditions = oral, 180 mg/kg, day 28, 28-day subacute toxicity; measurement = serum total protein; value = 47.1 ± 9.95 g/L
Compound = O=C1NC2(CC2)COc2ncc(F)cc2[C@H]2COCCN2c2ccn3ncc1c3n2; system = Sprague-Dawley rat, male, testes; conditions = oral, 10 mg/kg/day, 4 weeks, end of treatment; measurement = organ-to-body weight ratio; value = 0.736 ± 0.073%
Compound = CC(C)[C@H](NC(=O)[C@@H](NC(=O)[C@H](CCCNC(=N)N)NC(=O)[C@H](CCCNC(=N)N)NC(=O)[C@H](CCCNC(=N)N)NC(=O)[C@H](CCC(N)=O)NC(=O)[C@H](CCCNC(=N)N)NC(=O)[C@H](CCCNC(=N)N)NC(=O)[C@H](CCCCN)NC(=O)[C@H](CCCCN)NC(=O)[C@H](CCCNC(=N)N)NC(=O)CN)[C@@H](C)O)C(=O)N[C@H](C(=O)N[C@@H](CO)C(=O)N1CCC[C@H]1C(=O)O)[C@@H](C)O; system = ICR mice, female, brain; conditions = intranasal, 20 mg/kg daily, 4 weeks; measurement = organ weight; value = 0.451 ± 0.067 g
Compound = CN[C@H](CC(C)C)C(=O)N[C@H]1C(=O)N[C@@H](CC(N)=O)C(=O)N[C@H]2C(=N)N[C@H]3C(=O)N[C@H](C(=O)N[C@H](C(=O)NCCCNC(=N)N)c4cc(O)cc(O)c4-c4cc3ccc4O)[C@H](O)c3ccc(c(Cl)c3)Oc3cc2cc(c3O[C@@H]2O[C@H](CO)[C@@H](O)[C@H](O)[C@H]2O[C@H]2C[C@](C)(NCc3ccc(-c4ccc(Cl)cc4)cc3)[C@H](O)[C@H](C)O2)Oc2ccc(cc2Cl)[C@H]1O; system = mouse; conditions = intravenous, 25 mg/kg; measurement = half-life; value = 5 h

For quick reference, copied from above:
Compound = CCCCC[C@@H]1NC(=O)[C@@H](C)N(C)C(=O)[C@H](CCCCC)N(C)C(=O)[C@@H](C)N(C)C(=O)[C@H](CCCCC)N(C)C(=O)[C@@H](C)N(C)C(=O)[C@H](CCCCC)N(C)C(=O)[C@@H](C)N(C)C1=O; assay = PAMPA, HPLC-UV; conditions = 500 µM, pH 7.4; measurement = log Papp; value = -5.24 ± 0.03
Compound = O=C1NC2(CC2)COc2ncc(F)cc2[C@H]2COCCN2c2ccn3ncc1c3n2; system = Sprague-Dawley rat, male, testes; conditions = oral, 10 mg/kg/day, 4 weeks, end of treatment; measurement = organ-to-body weight ratio; value = 0.736 ± 0.073%
